Measurements of several laboratories.
Every numbered part comes from another study and shows a few of its results, in no order. Values joined by “and” are separate records of one study, mostly repeats; a detail may differ.

Set 1
Target: Ephrin type-A receptor 4 (EPHA4, Homo sapiens, UniProt P54764)
Chain of UniProt P54764 (whole entry, looked up): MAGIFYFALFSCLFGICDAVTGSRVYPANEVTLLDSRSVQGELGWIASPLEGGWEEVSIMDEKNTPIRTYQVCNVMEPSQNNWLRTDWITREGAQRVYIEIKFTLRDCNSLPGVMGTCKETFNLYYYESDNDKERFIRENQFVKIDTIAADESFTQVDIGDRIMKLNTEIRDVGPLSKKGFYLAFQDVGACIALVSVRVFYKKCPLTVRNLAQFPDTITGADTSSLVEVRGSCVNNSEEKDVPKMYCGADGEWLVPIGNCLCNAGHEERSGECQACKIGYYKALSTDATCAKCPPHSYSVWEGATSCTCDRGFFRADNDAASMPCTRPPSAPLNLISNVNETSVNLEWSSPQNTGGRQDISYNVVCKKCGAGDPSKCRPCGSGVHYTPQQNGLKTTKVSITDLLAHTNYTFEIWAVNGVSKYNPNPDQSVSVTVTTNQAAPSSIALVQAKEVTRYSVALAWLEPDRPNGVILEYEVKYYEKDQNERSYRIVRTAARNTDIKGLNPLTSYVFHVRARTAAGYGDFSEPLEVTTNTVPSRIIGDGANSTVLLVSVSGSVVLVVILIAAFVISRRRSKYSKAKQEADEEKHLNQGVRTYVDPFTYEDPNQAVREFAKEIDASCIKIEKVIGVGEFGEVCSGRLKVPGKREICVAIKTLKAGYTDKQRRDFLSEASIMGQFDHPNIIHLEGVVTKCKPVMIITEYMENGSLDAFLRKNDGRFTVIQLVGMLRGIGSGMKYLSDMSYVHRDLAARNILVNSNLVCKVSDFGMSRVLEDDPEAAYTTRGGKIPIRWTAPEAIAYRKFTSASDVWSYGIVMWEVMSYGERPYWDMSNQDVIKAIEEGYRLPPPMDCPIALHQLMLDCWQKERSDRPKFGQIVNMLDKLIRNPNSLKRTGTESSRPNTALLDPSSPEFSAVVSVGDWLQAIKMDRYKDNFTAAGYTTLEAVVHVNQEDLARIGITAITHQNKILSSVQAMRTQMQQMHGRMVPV
Observed: enzyme activity
Mode: inhibitor
Tested at: 0.5 µM
Baseline: control
SMILES	remaining activity
CCN(CC)C(=O)c1ccc(Nc2nc(OCC3CCCCC3)c3[nH]cnc3n2)cc1	86.7%
Ic1cccc(CSc2nnc(-c3ccncc3)o2)c1	105%
N#C/C(=C\c1ccc(O)c(O)c1)C(=O)NCc1ccccc1	99.5%
Cc1nc2cc3nc(-c4cccs4)cnc3cc2n1C	93.1%
CCOc1nc(NC(=O)Cc2cc(OC)ccc2OC)cc(N)c1C#N	99.1%
CN(C)C[C@H]1CCn2c(c(C3=C(c4cn(C)c5ccccc45)C(=O)NC3=O)c3ccccc32)C1	103%
Cc1cn(-c2cc(NC(=O)c3ccc(C)c(Nc4nccc(-c5cccnc5)n4)c3)cc(C(F)(F)F)c2)cn1	12%
CN([C@@H](Cc1ccc(OS(=O)(=O)c2cccc3cnccc23)cc1)C(=O)N1CCN(c2ccccc2)CC1)S(=O)(=O)c1cccc2cnccc12	95.4%
O=C1C(Cl)=C(N2C(=O)CCC2=O)C(=O)c2ccccc21	101%
COc1cc2ncnc(Nc3cccc(Cl)c3)c2cc1OC	81.7%
Cc1cc2ncc(-c3ccccc3)nc2cc1C	95.4%
COc1cc2ncnc(Nc3ccc(O)c(Br)c3)c2cc1OC	83.7%
N#Cc1c(NC(=O)c2cccc3ccccc23)sc2c1CCCC2	99%
Nc1cccc(-c2cc3c(Oc4cccc(O)c4)ncnc3[nH]2)c1	48.3%
O=C(NC(NC(=S)Nc1ccc(F)c([N+](=O)[O-])c1)C(Cl)(Cl)Cl)C(c1ccccc1)c1ccccc1 (stereo not drawn)	101%
c1ccc(-c2cnc(Nc3ccc(OCCN4CCCC4)cc3)s2)cc1	101%
CCN(CC)CCNC(=O)c1c(C)[nH]c(/C=C2\C(=O)Nc3ccc(F)cc32)c1C	84.5%
COc1cc2c(cc1OC)-c1[nH]nc(Nc3cccc(F)c3)c1C2	93.3%
O=c1cc(-c2cccc3c2Sc2ccccc2S3)oc(N2CCOCC2)c1	101%
O=C1c2ccccc2-c2n[nH]c3cccc1c23	107%
c1ccc(-c2[nH]ncc2-c2ccnc3ccccc23)nc1	98%
O=C(Nc1cccc(Nc2nccc(Nc3cccc(C(F)(F)F)c3)n2)c1)C1CC1	81%
C[C@@H]1CCN(C(=O)CC#N)C[C@@H]1N(C)c1ncnc2[nH]ccc12	99.1%

Set 2
Target: Calcium/calmodulin-dependent protein kinase type II subunit alpha (CAMK2A, Homo sapiens, UniProt Q9UQM7)
Chain of UniProt Q9UQM7 (whole entry, looked up): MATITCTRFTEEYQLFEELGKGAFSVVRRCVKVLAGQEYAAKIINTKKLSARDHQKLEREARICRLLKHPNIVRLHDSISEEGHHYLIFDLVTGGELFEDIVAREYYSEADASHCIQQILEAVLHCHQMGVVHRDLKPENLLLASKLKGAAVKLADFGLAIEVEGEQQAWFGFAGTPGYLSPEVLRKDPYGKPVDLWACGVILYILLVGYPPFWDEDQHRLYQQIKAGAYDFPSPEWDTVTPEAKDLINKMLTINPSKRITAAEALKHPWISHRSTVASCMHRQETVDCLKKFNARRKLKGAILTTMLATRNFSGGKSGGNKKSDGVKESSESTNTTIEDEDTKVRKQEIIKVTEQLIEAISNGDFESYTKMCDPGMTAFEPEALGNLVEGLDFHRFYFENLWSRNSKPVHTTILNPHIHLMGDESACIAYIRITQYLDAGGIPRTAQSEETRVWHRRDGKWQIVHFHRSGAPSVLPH
Observed: enzyme activity
Mode: inhibitor
Tested at: 10 µM
Compound	inhibition [%]
CC/C=C\CC1=C(C)CCC1=O	-7
CC(C)=CCC[C@@H](C(=O)O)[C@H]1CC[C@@]2(C)C3=CC[C@H]4C(C)(C)[C@@H](O)CC[C@]4(C)C3=CC[C@]12C	32
COc1cc2oc3cc(O)c(OC)c(CC=C(C)C)c3c(=O)c2c(O)c1CC=C(C)C	-3
CC(C)Cc1ccc([C@H](C)C(=O)O)cc1	1
CC1(C)O[C@@H]2C[C@H]3[C@@H]4C[C@H](F)C5=CC(=O)CC[C@]5(C)[C@H]4[C@@H](O)C[C@]3(C)[C@]2(C(=O)CO)O1	-8
N[C@H]1[C@H](O[C@H]2[C@H](O)[C@@H](N)[C@H](O[C@H]3[C@H](O)[C@@H](N)[C@H](O[C@@H]([C@H](O)[C@@H](N)C=O)[C@H](O)CO)O[C@@H]3CO)O[C@@H]2CO)O[C@H](CO)[C@@H](O)[C@@H]1O	-1
CO[C@@H]1[C@@H](O[C@@H]2O[C@H](C)[C@@H](O[C@H]3C[C@@](C)(O)[C@@H](O)[C@H](C)O3)[C@H](N(C)C)[C@H]2O)[C@@H](CC=O)C[C@@H](C)[C@@H](O[C@H]2CC[C@H](N(C)C)[C@@H](C)O2)/C=C/C=C/C[C@@H](C)OC(=O)C[C@H]1O	-1

Set 3
Target: Alpha-2B adrenergic receptor (ADRA2B, Homo sapiens, UniProt P18089)
Chain of UniProt P18089 (whole entry, looked up): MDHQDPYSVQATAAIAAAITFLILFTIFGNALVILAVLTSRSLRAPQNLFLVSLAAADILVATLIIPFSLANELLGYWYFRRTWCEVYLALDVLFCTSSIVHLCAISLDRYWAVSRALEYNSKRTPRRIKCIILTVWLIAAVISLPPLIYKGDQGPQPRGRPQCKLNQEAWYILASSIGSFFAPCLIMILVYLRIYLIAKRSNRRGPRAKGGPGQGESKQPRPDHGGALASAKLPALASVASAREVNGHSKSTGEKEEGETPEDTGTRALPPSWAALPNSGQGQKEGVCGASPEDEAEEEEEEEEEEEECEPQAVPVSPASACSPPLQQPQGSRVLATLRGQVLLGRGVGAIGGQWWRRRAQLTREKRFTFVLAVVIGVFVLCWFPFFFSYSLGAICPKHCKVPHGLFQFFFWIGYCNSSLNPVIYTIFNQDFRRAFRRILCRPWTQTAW
Observed: ligand displacement
Tested at: 10 µM
Compound	inhibition
Cc1cc(Nc2nccc(C)n2)cc(-c2cnc([C@@]3(O)CC[C@H](C(=O)O)C(C)(C)C3)s2)c1	-7.14%
CN1CCN(c2cnc3c(C4CCN(C(=O)c5ccc(OC(F)(F)F)cc5N)CC4)ncnc3c2)CC1	-8.47%
c1ccc(N2CCN(Cc3nc4ccccc4[nH]3)CC2)nc1	18.4%
NC(=O)c1ccc2nc(-c3ccc(C4(N)CCC4)cc3)c(-c3ccccc3)n2n1	28.7%
Cc1ccccc1Oc1cc(-n2c(=O)cc(C(F)(F)F)[nH]c2=O)c2ccccc2c1Cl	-8.63%
O=S(=O)(NC1CCC(c2cc(F)ccc2F)(S(=O)(=O)c2ccc(Cl)cc2)CC1)C(F)(F)F (stereo not drawn)	-2.13%
CCOc1ccc(S(=O)(=O)Nc2ccc(Cl)cc2C#Cc2cnc(C(=O)O)cc2OC)c2ncccc12	15%
CC(=O)N1CCC(c2ccc(C(=O)NC3=NCCN3)cc2C(F)(F)F)CC1	1.01%

Set 4
Structure (SMILES): C=CCc1ccc(O)c(-c2cc(CC=C)ccc2O)c1
Tested at: 30 µM
ANO1 del476-501/E659A: Anoctamin-1 (ANO1, Homo sapiens, UniProt Q5XXA6, del476-501/E659A)
Chain of UniProt Q5XXA6 (whole entry, unmodified, looked up): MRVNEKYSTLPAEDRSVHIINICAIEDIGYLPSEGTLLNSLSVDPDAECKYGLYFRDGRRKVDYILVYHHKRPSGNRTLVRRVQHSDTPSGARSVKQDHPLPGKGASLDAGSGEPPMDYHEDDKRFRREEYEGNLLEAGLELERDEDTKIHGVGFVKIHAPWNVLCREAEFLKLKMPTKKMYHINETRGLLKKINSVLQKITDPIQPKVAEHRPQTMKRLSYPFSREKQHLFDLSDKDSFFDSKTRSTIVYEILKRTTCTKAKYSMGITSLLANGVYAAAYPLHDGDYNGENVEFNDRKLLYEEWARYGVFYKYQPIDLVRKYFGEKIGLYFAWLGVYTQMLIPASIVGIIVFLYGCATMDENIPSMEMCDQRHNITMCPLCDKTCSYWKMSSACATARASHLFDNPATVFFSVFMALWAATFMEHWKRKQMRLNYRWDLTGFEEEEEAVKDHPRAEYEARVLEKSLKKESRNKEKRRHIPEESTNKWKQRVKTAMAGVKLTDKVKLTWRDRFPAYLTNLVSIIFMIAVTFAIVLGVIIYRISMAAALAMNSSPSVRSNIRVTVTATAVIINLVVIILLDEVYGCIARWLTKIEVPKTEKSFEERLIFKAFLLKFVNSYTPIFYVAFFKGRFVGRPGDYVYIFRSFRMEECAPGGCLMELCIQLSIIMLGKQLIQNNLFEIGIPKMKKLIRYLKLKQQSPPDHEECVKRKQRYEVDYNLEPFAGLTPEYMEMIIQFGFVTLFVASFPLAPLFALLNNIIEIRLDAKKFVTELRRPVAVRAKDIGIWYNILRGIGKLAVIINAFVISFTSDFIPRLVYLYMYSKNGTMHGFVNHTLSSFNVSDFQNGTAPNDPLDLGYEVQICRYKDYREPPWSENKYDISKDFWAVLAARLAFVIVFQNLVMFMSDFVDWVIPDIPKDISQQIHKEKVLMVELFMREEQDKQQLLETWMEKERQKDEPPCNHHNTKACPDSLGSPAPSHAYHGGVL
ANO1 del476-501/K629A: Anoctamin-1 (ANO1, Homo sapiens, UniProt Q5XXA6, del476-501/K629A)
ANO1: Anoctamin-1 (ANO1, Homo sapiens, UniProt Q5XXA6)
target	test	conditions	how to read	normalized current
Anoctamin-1 (ANO1, Homo sapiens, UniProt Q5XXA6, del476-501/E649A)	ion current, inside-out patch clamp	E623A mutant at -40 mV	–	-0.25
Anoctamin-1 (ANO1, Homo sapiens, UniProt Q5XXA6, del476-501/R541A)	chloride current, inside-out patch clamp	membrane voltage -40 mV	–	-0.217
ANO1 del476-501/E659A	chloride current, inside-out patch clamp	membrane voltage 100 mV	–	0.753
ANO1 del476-501/K629A	chloride current, inhibitor, whole-cell voltage clamp	–	baseline: untreated	0.946
ANO1	chloride current, inside-out patch clamp	membrane voltage -40 mV	–	-0.441
ANO1	chloride current, inside-out patch clamp	membrane voltage 60 mV	–	0.536
ANO1 del476-501/E659A	chloride current, inside-out patch clamp	membrane voltage -20 mV	–	-0.185
ANO1 del476-501/K629A	chloride current, inside-out patch clamp	membrane voltage -20 mV	–	-0.117

Set 5
SMILES: CC(C)(C(=O)O)[C@H](NC(=O)Cc1cccc(I)c1)c1ccc2oc(=O)[nH]c2c1
Method: Incucyte 3D growth
Tested at: 30 µM
Direction: higher = more growth
cell line	conditions	spheroid area
A375	0.52 h	7.37e+06 a.u. and 7.27e+06 a.u. and 9.02e+06 a.u. and 7.22e+06 a.u. and 6.13e+06 a.u. and 9.64e+06 a.u.
A375	348.52 h	1.94e+08 a.u. and 1.71e+08 a.u. and 1.68e+08 a.u. and 1.63e+08 a.u. and 1.85e+08 a.u. and 1.72e+08 a.u.
MEL-JUSO	498.52 h	2.46e+07 a.u. and 7.54e+07 a.u. and 5.52e+07 a.u. and 1.89e+07 a.u. and 2.43e+07 a.u. and 3.18e+07 a.u.
KP-4	120 h	2e+07 a.u. and 1.93e+07 a.u. and 1.78e+07 a.u. and 1.59e+07 a.u. and 1.98e+07 a.u. and 1.94e+07 a.u.
MEL-JUSO	384.52 h	7.13e+07 a.u. and 4.08e+07 a.u. and 3.2e+07 a.u. and 3.96e+07 a.u. and 4.33e+07 a.u. and 3.95e+07 a.u.

Excerpt of the above (set 1):
SMILES	remaining activity
COc1cc2c(cc1OC)-c1[nH]nc(Nc3cccc(F)c3)c1C2	93.3%
N#Cc1c(NC(=O)c2cccc3ccccc23)sc2c1CCCC2	99%
O=C1C(Cl)=C(N2C(=O)CCC2=O)C(=O)c2ccccc21	101%
c1ccc(-c2[nH]ncc2-c2ccnc3ccccc23)nc1	98%
CCOc1nc(NC(=O)Cc2cc(OC)ccc2OC)cc(N)c1C#N	99.1%
